{"data": "Measurements of several laboratories", "note": "Each numbered part is a random draw from the data of one study; scales do not carry over between parts. Changes are numbered by the printed parent chain."}
{"data": "Block 1", "target": "CCNB2, cyclin fold, Cln2 fusion (human)", "technique": "yeast growth competition, sequencing", "matrix": "yeast", "setting": "weak parent motif", "baseline": "not given", "reading": "higher = stronger binding", "starting sequence": "PKN2 docking peptide (human); VSAVRKLDFSDTM; partner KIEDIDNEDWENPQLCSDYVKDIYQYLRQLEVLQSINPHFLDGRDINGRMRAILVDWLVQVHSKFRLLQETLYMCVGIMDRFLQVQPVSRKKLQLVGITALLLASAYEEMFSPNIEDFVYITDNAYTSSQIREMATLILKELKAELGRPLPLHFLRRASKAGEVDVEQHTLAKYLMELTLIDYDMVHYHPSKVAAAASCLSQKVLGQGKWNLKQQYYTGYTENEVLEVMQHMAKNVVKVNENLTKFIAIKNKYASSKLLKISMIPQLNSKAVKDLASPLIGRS"}
{"Variant": "V4M", "normalised enrichment score": 0.318}
{"Variant": "S10T", "normalised enrichment score": 0.66}
{"Variant": "F9I", "normalised enrichment score": 0.505}
{"Variant": "L7W", "normalised enrichment score": -0.13}
{"Variant": "F9R", "normalised enrichment score": 0.0452}
{"Variant": "F9Q", "normalised enrichment score": -0.0973}
{"Variant": "F9P", "normalised enrichment score": 0.159}
{"Variant": "V4C", "normalised enrichment score": 1.21}
{"data": "Block 2", "target": "Ras GTPase-activating protein-binding protein 1, full length (G3BP1, Homo sapiens, UniProt Q13283)", "technique": "RNA Bind-n-Seq", "molecule type": "RNA", "matrix": "in vitro", "tested at": "200 nM", "setting": "whole 134-nt RNA, ends assumed", "with": "150 mM LiCl", "baseline": "input library", "reading": "higher = stronger binding", "all molecules": "7-deaza-guanosine replaces G", "constant ends, left off below": "GGGAGUUCUACAGUCCGACGAUC … UGGAAUUCUCGGGUGUCAAGG", "chain of UniProt Q13283 (whole entry, looked up)": "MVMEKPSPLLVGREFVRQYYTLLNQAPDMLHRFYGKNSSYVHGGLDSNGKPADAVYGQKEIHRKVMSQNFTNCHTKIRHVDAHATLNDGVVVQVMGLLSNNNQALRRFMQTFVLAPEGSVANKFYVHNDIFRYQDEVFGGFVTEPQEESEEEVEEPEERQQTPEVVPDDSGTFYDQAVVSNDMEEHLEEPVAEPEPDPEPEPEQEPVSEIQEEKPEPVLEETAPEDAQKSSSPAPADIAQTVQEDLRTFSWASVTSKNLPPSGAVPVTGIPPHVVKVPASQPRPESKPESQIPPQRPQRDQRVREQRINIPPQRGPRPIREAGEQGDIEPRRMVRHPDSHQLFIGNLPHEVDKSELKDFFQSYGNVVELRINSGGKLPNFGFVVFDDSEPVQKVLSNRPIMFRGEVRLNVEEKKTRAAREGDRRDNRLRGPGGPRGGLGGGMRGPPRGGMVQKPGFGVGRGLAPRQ"}
{"Strand": "UAACUUUAGAGGAGGAUCUGAUGGAUAUGGCAGUGGACGUGGAUUUGGGGAUGCCUAUAAUGGGUAUGGAGGAGGACCUGGAGGUGGCAA", "log2 enrichment": -0.695}
{"Strand": "AAGUCCUGUGCUACACAUCGUAUGUACCGAAUCGGGGAAAGGGAAAGGGAAAGGGGAAAGUAUUAUGUUACGCCGUUCGGAUCUGCACUU", "log2 enrichment": 0.489}
{"Strand": "GUCCUGUGCUACACAUCGUAUGUACCGAAUCGGGGCCCCCGGGGCCCCCGGGCCCCCGGAAAGUAUUAUGUUACGCCGUUCGGAUCUGCA", "log2 enrichment": -1.65}
{"Strand": "CCUCAAGUCCUGUGCUACACAUCGUAUGUACCGAAUCGGGCGGGCGGGCGGGAAAGUAUUAUGUUACGCCGUUCGGAUCUGCACUUCCAG", "log2 enrichment": -0.151}
{"Strand": "UCCUGUGCUACACAUCGUAUGUACCGAAUCGGGGUUUGGGGAAAAAGGGGAAAAAGGGGAAAGUAUUAUGUUACGCCGUUCGGAUCUGCA", "log2 enrichment": -0.00954}
{"Strand": "CUCAAGUCCUGUGCUACACAUCGUAUGUACCGAAUCGGGCCGGGCCGGGCCGGGAAAGUAUUAUGUUACGCCGUUCGGAUCUGCACUUCC", "log2 enrichment": 0.677}
{"Strand": "UGGCCCUGGUGGCAUGCGGGGAGGAAGACGUGGCCUCAUGGAUCGUGGUGGUCCCGGUGGAAUGUUCAGAGGUGGCCGUGGUGGAGACAG", "log2 enrichment": 0.286}
{"Strand": "AAGUCCUGUGCUACACAUCGUAUGUACCGAAUCGGGCCCCGGCCCCGGGCCCCGGGAAAGUAUUAUGUUACGCCGUUCGGAUCUGCACUU", "log2 enrichment": -2.03}
{"data": "Block 3", "target": "RING finger protein unkempt homolog, zinc fingers 1-6, GST-SBP tag (UNK, Homo sapiens, UniProt Q9C0B0, residues 30-357)", "technique": "RNA Bind-n-Seq", "molecule type": "RNA", "matrix": "in vitro", "tested at": "not given", "setting": "RNA with constant flanks, human and mouse sites, ends assumed", "baseline": "input RNA pool", "reading": "higher = stronger binding", "constant ends, left off below": "GGGAGUUCUACAGUCCGACGAUC … CAACAGAGGAUUGAGCAUCA", "chain of UniProt Q9C0B0 (30-357, looked up)": "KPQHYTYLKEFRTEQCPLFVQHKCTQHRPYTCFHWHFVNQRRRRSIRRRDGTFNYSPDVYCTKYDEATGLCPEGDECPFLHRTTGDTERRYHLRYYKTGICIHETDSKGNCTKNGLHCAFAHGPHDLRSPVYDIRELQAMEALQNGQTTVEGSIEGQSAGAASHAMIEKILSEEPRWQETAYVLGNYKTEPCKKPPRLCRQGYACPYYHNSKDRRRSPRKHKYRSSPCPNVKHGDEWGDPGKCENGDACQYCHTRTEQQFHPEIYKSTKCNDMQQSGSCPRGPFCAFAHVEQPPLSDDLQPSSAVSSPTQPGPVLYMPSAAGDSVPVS"}
{"Strand": "AAAAUAAAGUUUUGUAGUGGGACCAGAAAUUACUUACCUGACAUCCACCCCCAUUCCCCCUCAUCCUGCUGGGGUUGAAAGUUCCAGACCUGCUGUCGAGGCCUUGUGUUUGUCAGACAC", "bound/input enrichment": "0.193 ratio"}
{"Strand": "GAUAUCUGUCGUAGAAACCUCGACAUUGAGCGCCCAACCUACACUAACCUAAACAGGUUGAUAGGUCAAAUUGUGUCUUCCAUCACUGCUUCCCUCAGAUUUGAUGGGGCCCUGAAUGUU", "bound/input enrichment": "0.213 ratio"}
{"Strand": "CUGCAAGACAAGGACAAGGAGGUGGAAGAACUCCUCCAGGAGAUACAAUGUGAAAAGGCUCAAGCAAAGACAGCGUCUGAGCUUUCCAAGUCCAUGGAGUCCAUGCGGGGGCAUUUGCAG", "bound/input enrichment": "0.114 ratio"}
{"Strand": "GAUGCAGAAAAUAGUCAGGCACAGGAAACUUUUCCAAAGACUGUUGGACUAGAGGACCGAAGUCUAAAGAUCAUCAAAAGAAGCAAGAAACCAGACCUGCAGAUCUACCAGCCUGGAAGG", "bound/input enrichment": "0.373 ratio"}
{"Strand": "CAUUUUAGCAUUGGAAAAGCACCACUGAAAGAUGAACAGGAAAUGAGAGCAUCUCCCAAAAUAAGUCGAAAAUGUGCUAAUAGACACACCAGGCCCAAAAAAGAAAAAUCGAGUUUUCUU", "bound/input enrichment": "0.139 ratio"}
{"Strand": "UCAAUUCUUCAAGAAAAAUUGCAAGAAAUCAGAAAGCAUUAUCUGUCUUUAAAAUCUGAAGUAGCUUCCAUUGAUAGGAGGAGAAAACGUUUAAAGAAGAAAGAGAGAGAAAGUGCUGCU", "bound/input enrichment": "0.498 ratio"}
{"Strand": "CCCUAAACUGCAUAAUUCUGAAGUUAUAUUUCCUAUACCAUUUCCGUAAUUCUUAUUCCAUAUUAGAAAACUUUGUUAGGCCAAAGACAAAUAGUAGGCAAGAUGGCACAGGGCAUGAAA", "bound/input enrichment": "2.83 ratio"}
{"data": "Further values, each from its own experiment"}
{"Substance": "PhoQ, residues 284 288 289 292 302 303 SLSLLA", "target": "PhoP, residues 12 14 15 18 19 SPWRL (Escherichia coli, UniProt P23836)", "assay": "Sort-seq, refers to: YFP reporter", "system": "E. coli", "setting": "PhoQ-PhoP variant library, with: 10 µM Mg2+", "how to read": "baseline: high Mg2+ state, higher = stronger signaling", "measurement": "fold induction", "value": 10.9}
{"note": "Excerpt of the above (block 1):"}
{"Variant": "F9R", "normalised enrichment score": 0.0452}
{"Variant": "V4M", "normalised enrichment score": 0.318}
{"Variant": "V4C", "normalised enrichment score": 1.21}
